Published values pooled from the literature.
Each line is one published result; not all experiments were run side by side.
Target: Amine oxidase [flavin-containing] B (MAOB, Homo sapiens, UniProt P27338)
UniProt P27338, sequence (whole entry, looked up): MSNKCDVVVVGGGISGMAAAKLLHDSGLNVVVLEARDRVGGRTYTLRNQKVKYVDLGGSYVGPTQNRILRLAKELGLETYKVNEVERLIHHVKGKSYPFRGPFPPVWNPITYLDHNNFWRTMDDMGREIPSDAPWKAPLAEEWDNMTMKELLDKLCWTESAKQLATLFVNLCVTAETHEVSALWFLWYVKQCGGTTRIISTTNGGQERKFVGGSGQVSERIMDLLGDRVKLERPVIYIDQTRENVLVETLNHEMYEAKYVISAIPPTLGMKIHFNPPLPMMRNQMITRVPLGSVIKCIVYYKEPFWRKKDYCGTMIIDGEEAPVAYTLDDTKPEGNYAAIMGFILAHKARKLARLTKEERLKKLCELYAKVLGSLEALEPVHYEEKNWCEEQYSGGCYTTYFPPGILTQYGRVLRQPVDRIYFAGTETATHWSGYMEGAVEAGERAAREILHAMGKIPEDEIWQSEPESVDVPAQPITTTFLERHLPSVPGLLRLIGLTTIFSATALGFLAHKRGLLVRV
Effect on: enzyme activity
Action: inhibitor

Structure (SMILES)	test	IC50 [µM]
CNC(=S)N/N=C/c1ccc(OCc2ccccc2)cc1	absorbance	0.12
O=C(/C=C/c1cccc(F)c1)c1cc2ccccc2oc1=O		3.61
CNC(=S)N/N=C/c1cccc(OCc2ccccc2)c1	absorbance	4.75
CCS(=O)(=O)N1CCN(CC(=O)Nc2ccc(/C=C/C(=O)c3ccc(OC)c(OC)c3)cc2)CC1	fluorescence	> 100
O=C1c2cc(Br)ccc2NC12CCCC2		16.5
S=C(N/N=C/c1ccc(OCc2ccccc2)cc1)Nc1ccccc1	absorbance	8.22
O=C1c2cc(F)ccc2NC12CCCC2		26.1
NC(=O)N/N=C/c1cccc(OCc2ccccc2)c1	absorbance	1.55
O=C1c2ccccc2N(Cc2cccc(Br)c2)C12CCCC2		3.02
NC(=S)N/N=C/c1ccccc1OCc1ccccc1	absorbance	9.65
CC(=O)C1=C(C)NC(SCCCSc2nnc(Cc3ccccc3Nc3c(Cl)cccc3Cl)n2-c2ccc(Cl)c(Cl)c2)=NC1c1ccc(C)cc1 (stereo not drawn)	fluorescence	15.2
S=C(N/N=C/c1cccc(OCc2ccccc2)c1)Nc1ccccc1	absorbance	0.46
CC(=O)C1=C(C)NC(SCCCSc2nnc(Cc3ccccc3Nc3c(Cl)cccc3Cl)n2-c2ccc(Cl)c(Cl)c2)=NC1c1ccccc1 (stereo not drawn)	fluorescence	10.1
O=C(/C=C/c1ccc(Cl)cc1)c1cc2ccccc2oc1=O		26.2
CC(=O)C1=C(C)NC(SCCCSc2nnc(Cc3ccccc3Nc3c(Cl)cccc3Cl)n2-c2ccc(Cl)c(Cl)c2)=NC1c1ccc([N+](=O)[O-])cc1 (stereo not drawn)	fluorescence	9.13
O=C(/C=C/c1ccccc1Br)c1cc2ccccc2oc1=O		23.6
O=C1c2cc(Cl)ccc2NC12CCCC2		23.6
CNC(=S)N/N=C/c1ccc(OCc2cccc(F)c2)cc1	absorbance	1.68
COC(=O)c1ccc(-n2nc(-c3ccccc3O)nc2-c2ccccc2O)cc1	fluorescence	19.6
O=C(/C=C/c1ccc(F)cc1)c1cc2ccccc2oc1=O		3.36
O=c1ccoc2ccc(OCCN3CCCCCC3)cc12	fluorescence	3.99
COc1cc(/C=C/C(=O)NC(C)C(N)=O)ccc1OCc1ccccc1 (stereo not drawn)	fluorescence	0.318
O=C1c2cc(F)ccc2N(Cc2ccccc2)C12CCCC2		9.33
O=c1ccoc2ccc(OCCCN3CCOCC3)cc12	fluorescence	1.18

Excerpt of the above:
Structure (SMILES)	test	IC50 [µM]
S=C(N/N=C/c1cccc(OCc2ccccc2)c1)Nc1ccccc1	absorbance	0.46
COC(=O)c1ccc(-n2nc(-c3ccccc3O)nc2-c2ccccc2O)cc1	fluorescence	19.6
